Published values pooled from the literature.
Compare with care: the assays were run in different laboratories.
Cell line: RAW264.7

| Compound | assay | setting | inhibition |
| --- | --- | --- | --- |
| CCN(CC)c1ccc(/C=C/C(=O)C(c2ccccc2)c2ccccc2)cc1 | IL-6 release, inhibitor, ELISA | 10 µM, LPS-stimulated | 89% |
| CC(=O)O[C@@H]1CC[C@@]2(C)C(CC[C@]3(C)C2C(=O)C=C2C4[C@@H](C)[C@H](C)CC[C@]4(C)CC[C@]23C)[C@@]1(C)C(=O)OCC(=O)O[C@@H]1C[C@H](C)CC[C@H]1C(C)C (some centres unmarked) | NO release, inhibitor, Griess | 10 µM, 24 h, LPS-stimulated | 75.3% |
| CN(CCO)c1ccc(/C=C/C(=O)c2ccco2)cc1 | IL-6 release, inhibitor, ELISA | 10 µM, LPS-stimulated | 73 to 89% |
| COc1cc(/C=N\NC(=O)[C@]2(C)C3CC[C@]4(C)C(C(=O)C=C5C6[C@@H](C)[C@H](C)CC[C@]6(C)CC[C@]54C)[C@@]3(C)CC[C@H]2OC(C)=O)cc(OC)c1OC (some centres unmarked) | NO release, inhibitor, Griess | 10 µM, 24 h, LPS-stimulated | 96.4% |
| Fc1ccc(NCc2cn(-c3ccccc3)nc2-c2ccc(OCc3ccccc3)cc2)cc1Cl | ELISA, measured: TNF-alpha | 20 µM, together with: LPS | 75.5% |
| N#Cc1cccc(/C=C/C(=O)c2nc3cc(Cl)ccc3[nH]2)c1 | osteoclast formation, measured: TRAP-positive cells | 20 µg/mL, 72 h, together with: RANKL | 42.2% |
| C/C=C(/NC(=O)CCCCCCC)C(=O)N/C(=C/C)C(=O)N[C@H](CC(C)C)C(=O)N[C@H](C(=O)Nc1ccc(C(=O)N[C@H](C(=O)O)[C@@H](C)O)cc1)[C@@H](C)CC | NO production, Griess | concentration not given, together with: LPS | inhibited |
| COc1cccc(/C=C/C(=O)c2cccc3ccccc23)c1OC | IL-6 release, inhibitor, ELISA | 10 µM, LPS-stimulated | 89% |
| NS(=O)(=O)c1ccc(-n2cc(CNc3ccc(Cl)cc3)c(-c3ccc(OCc4ccccc4)cc3)n2)cc1 | ELISA, measured: TNF-alpha | 20 µM, together with: LPS | 69.9% |
| C/C=C(/NC(=O)CCCCCCC)C(=O)N/C(=C/C)C(=O)N[C@H](CC(C)C)C(=O)N[C@@H](CC(C)C)C(=O)Nc1ccc(C(=O)N[C@H](C(=O)O)[C@@H](C)O)cc1 | NO release, inhibitor, Griess | 5 µM, 24 h, LPS-stimulated | 28.3% |
| CC(=O)O[C@@H]1CC[C@@]2(C)C(CC[C@]3(C)C2C(=O)C=C2C4[C@@H](C)[C@H](C)CC[C@]4(C)CC[C@]23C)[C@@]1(C)c1nnc(SCC(=O)Oc2cc(C)ccc2C(C)C)o1 (some centres unmarked) | NO release, inhibitor, Griess | 10 µM, 24 h, LPS-stimulated | 85.2% |

Excerpt of the above:
| Compound | assay | setting | inhibition |
| --- | --- | --- | --- |
| CN(CCO)c1ccc(/C=C/C(=O)c2ccco2)cc1 | IL-6 release, inhibitor, ELISA | 10 µM, LPS-stimulated | 73 to 89% |
